Experimental data gathered from unrelated publications.
A part holds a random share of what one study measured.

Block 1
Target: Transcription factor Sp1 (SP1, Homo sapiens, UniProt P08047, residues 1-785, full length assumed)
UniProt P08047, sequence (whole entry, looked up): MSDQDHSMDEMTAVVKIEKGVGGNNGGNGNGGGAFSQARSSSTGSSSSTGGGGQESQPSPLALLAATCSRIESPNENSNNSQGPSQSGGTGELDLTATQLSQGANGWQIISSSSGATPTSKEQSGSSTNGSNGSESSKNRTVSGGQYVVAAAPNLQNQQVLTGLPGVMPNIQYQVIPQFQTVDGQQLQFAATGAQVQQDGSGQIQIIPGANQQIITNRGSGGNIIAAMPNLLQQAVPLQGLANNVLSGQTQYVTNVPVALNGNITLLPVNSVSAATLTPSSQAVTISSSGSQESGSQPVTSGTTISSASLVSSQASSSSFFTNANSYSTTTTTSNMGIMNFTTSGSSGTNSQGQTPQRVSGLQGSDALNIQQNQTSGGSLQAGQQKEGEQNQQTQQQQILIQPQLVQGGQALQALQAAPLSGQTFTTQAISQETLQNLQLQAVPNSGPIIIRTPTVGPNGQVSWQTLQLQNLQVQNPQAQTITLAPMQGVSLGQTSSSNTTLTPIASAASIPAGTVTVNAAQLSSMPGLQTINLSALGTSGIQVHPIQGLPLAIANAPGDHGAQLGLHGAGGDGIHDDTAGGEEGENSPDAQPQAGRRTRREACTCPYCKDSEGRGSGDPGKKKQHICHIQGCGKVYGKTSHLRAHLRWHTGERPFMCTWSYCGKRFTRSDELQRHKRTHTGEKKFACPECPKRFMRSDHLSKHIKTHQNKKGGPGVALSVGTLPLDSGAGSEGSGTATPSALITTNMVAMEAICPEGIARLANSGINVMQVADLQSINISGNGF
Method: protein-binding microarray
Molecule type: double-stranded DNA, one strand shown
Medium: in vitro
Tested at: not given
Notes: k-mer, scored over probes, only values ≥0.25
Direction: higher = stronger binding
Oligonucleotide	E-score
CAAACCCC	0.276
AACCCACT	0.254
CATGTATA	0.295
ATACTGAC	0.287
CCCCTCCG	0.328
ATGGGGTG	0.368
CCCCTGAC	0.301
GTCGCGAC	0.297
AATTACCC	0.274
ACAATTGA	0.279
CACATATC	0.267

Block 2
Target: Ras GTPase-activating protein-binding protein 1, C-terminal RGG region (G3BP1, Homo sapiens, UniProt Q13283)
UniProt Q13283, sequence (whole entry, looked up): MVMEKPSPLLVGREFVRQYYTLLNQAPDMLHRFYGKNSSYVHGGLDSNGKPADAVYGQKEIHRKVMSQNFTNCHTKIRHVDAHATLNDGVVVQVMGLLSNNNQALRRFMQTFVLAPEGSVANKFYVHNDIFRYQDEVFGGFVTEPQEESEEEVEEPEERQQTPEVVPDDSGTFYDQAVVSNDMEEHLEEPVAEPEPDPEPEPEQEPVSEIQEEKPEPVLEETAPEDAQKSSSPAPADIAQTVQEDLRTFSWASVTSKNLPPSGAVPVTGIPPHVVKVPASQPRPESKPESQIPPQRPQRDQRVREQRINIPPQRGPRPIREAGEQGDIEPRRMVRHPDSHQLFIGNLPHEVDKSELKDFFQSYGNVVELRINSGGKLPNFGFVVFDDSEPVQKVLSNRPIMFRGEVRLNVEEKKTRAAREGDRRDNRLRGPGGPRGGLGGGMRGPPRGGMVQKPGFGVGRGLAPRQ
Method: RNA Bind-n-Seq
Molecule type: RNA
Medium: in vitro
Tested at: 1 µM
Notes: whole 134-nt RNA, ends assumed
With: 150 mM KCl
Reference: input library
Direction: higher = stronger binding
Constant ends, left off below: GGGAGUUCUACAGUCCGACGAUC … UGGAAUUCUCGGGUGUCAAGG
Oligonucleotide	log2 enrichment
CACAGACAACACGCACCCACACAGACACAGAGGGAAGGGGUUGGGAUGGGGACAGGGUGCACAGCAGGGCGGGGUAGGACACCAGCCCCU	-1.03
UAAGGCCAGUAAAAUUUUAGUACCUGGAGGUUUGACUCUAAUUUUUGCACUGAUGGUGCCAAAGGGCCCUGAGUCAAAAGGAUAGCCAAG	-2.41
UGGCCCUGGUGGCAUGCGGGGAGGAAGAGGUGGCCUCAUGGAUCGUGGUGGUCCCGGUGGAAUGUUCAGAGGUGGCCGUGGUGAAGACAG	3.15
UAACUUUAGAGGAGGAUCUGAUGGAUAUGGCAGUGGACGUGGAUUUGGGGAUGGCUAAAAUGGGUAUGGAGGAGGACCUGGAGGUGGCAA	-0.499
UUCAUGAGGACCUCCGCCUGCUCUUGGAGACCCACCUGCCGUCCAAAAAGAAGAAAGUACUCUUGGGAGUUGGGGAUCCCAAGAUUGGUG	-0.0546
AAGUCCUGUGCUACACAUCGUAUGUACCGAAUCGGGGCCCGGGCCCGGGCCCGGGGAAAGUAUUAUGUUACGCCGUUCGGAUCUGCACUU	-2.39
UCUGUUUCCUCUGCCAGUGGCAAUGCAACACCUAACACUCCUGGGGAUGAGUCUCCCUGUGGUAUUAUUAUUCCUCAUGAAAACUCACCA	-0.033
ACCAUGCAGGUGGGCAUCUUUGGGAAGUGGGGCAAGGGGGGGAUAGGGAGGGGGGUAACACUGUGGGAACAGGUGGUCCCAGGUCGUUUC	3.01
UGGGAGGUGGAUUUUGUUUAUUUUUUUAGCUCAUUUCCAGGGGUGGGAGUUUUUUUUUAAUAUGUGUCAUGAAUAAAGUUGUUUUUGAAA	3.15
GCAGGAAGUAAAAACAAAUGGAAAUGCUUCGGAUUGUGGCAGGGGUGGGGGUUGCUAAGGAAAGGGUGGGAUGGGAGUGGGUAAAGAGUU	1.78
GUCCUGUGCUACACAUCGUAUGUACCGAAUCGGGUUUUUUUGGGAAAAAGGGUUUGGGAAAGUAUUAUGUUACGCCGUUCGGAUCUGCAC	-0.363
CCUGUGCUACACAUCGUAUGUACCGAAUCGGAAAAAAAGGGGAAAAAAAGGAAAAAAAGGAAAGUAUUAUGUUACGCCGUUCGGAUCUGC	-1.69
GAUGAUUACUAUGGUUAUGAUUAUCACGACUAUCGUGGAGGCUAUGAAGAUCCCUACUACGGCUAUGAUGAUGGCUAUGCAGUAAGAGGA	-2.02
UGGGAGGUGGAUUUUGUUUAUUUUUUUAGAUCAUUUCCAGGGGUGGGAAUUUUUUUUUAAUAUGUGUCAUGAAUAAAGUUGUUUUUGAAA	3.9

Block 3
Target: Interferon regulatory factor 5, full length, phosphomimetic (IRF5, Homo sapiens, UniProt Q13568-2, residues 1-514, S451D/S453D/S456D/S462D)
Method: protein-binding microarray
Molecule type: double-stranded DNA, one strand shown
Medium: in vitro
Tested at: 940 nM top
Notes: 60-bp whole probe
With: salmon DNA 0.4 mg/ml
Reference: random background probes
Direction: higher = stronger binding
Constant ends, left off below: GCCTAGCAC … GTCTTGATTCGCTTGACGCTGCTG
Oligonucleotide	fitted relative affinity [z-score]
TCACCACTCATGCCTCTTACTGTGCTA	1.15
GGCCCTGTCCTTTTCTTTACGTGCTAG	1.37
TCAGGACTGGACTTTCGGTTAGTGCTA	2.88
CTCCTGCAGCTGCCCTCCTGGTGCTAG	-0.15
GACGATTTCAGTCGCGAGACGTGCTAG	0.245
GACGGTTTCGCCTATCGGGACGTGCTA	6.57
GGGACTTTGAATTAGAAAGAGTGCTAG	-0.47
TACGGACTGCTTTTCCTGACGTGCTAG	-0.26
GACGGACTGGGGACTGGGGCCGTGCTA	-0.536
GACGGTATCGGTCTCGGCACGTGCTAG	7.54
GACGATTTCGGGTTTCGCGACGTGCTA	1.09
TCAGGTCTCCTTATCCTTTAGTGCTAG	0.387
GACGGATTCGGTTCCGGGACGTGCTAG	1.17
GACGGTATCTACTTTCGGGACGTGCTA	1.86

Block 4
Target: RING finger protein unkempt homolog, zinc fingers 1-6, SBP tag (UNK, Homo sapiens, UniProt Q9C0B0, residues 30-357)
UniProt Q9C0B0, sequence (30-357, looked up): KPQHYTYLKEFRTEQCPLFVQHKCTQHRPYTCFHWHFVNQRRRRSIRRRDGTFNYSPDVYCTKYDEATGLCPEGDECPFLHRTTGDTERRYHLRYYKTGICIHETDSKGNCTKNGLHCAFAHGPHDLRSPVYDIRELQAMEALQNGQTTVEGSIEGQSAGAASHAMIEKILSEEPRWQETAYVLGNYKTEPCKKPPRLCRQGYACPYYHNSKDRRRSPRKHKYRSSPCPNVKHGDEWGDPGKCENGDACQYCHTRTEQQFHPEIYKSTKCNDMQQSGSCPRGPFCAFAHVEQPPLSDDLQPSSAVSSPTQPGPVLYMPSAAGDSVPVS
Method: RNA Bind-n-Seq
Molecule type: RNA
Medium: in vitro
Tested at: 100 nM
Notes: RNA with constant flanks, vertebrate orthologous sites, ends assumed
Reference: input RNA pool
Direction: higher = stronger binding
Constant ends, left off below: GGGAGUUCUACAGUCCGACGAUC … CAACAGAGGAUUGAGCAUCA
Oligonucleotide	bound/input enrichment [ratio]
CAAGCUCAGAUGAAGAUGGUGGUUGUACGUUAUCAUUUCAUUUAGAAAAUAUUUUGAAGCUAGGUAUUAAACUGGAAUAGCUAUUAUACCCCCCCGAGAGUGGGGCAGUUGUGCCCUUAC	1.54
CCCCAGCACGCUGAUAAAGACCGUGGAUUGGCUGCUUGUGUUUUCCUUAUUCUUUUUAAUUAGCUUUAUUAUGUAUGCUACCAUCCGGACUGAGAGCAUUCGCUGGCUGAUUCCAGGACA	1.31
CCUACAAUAAUGAAAACCUAUAGAAAUUUUUUAAUUUUUCAUUUUCCCCUUAGGCAUACAUAGUCUUUUUCCCCCCAGGCAGAUCAUUCUGAGUGUGCGAGUGUGUGUGCACAUGUUACG	2.15
UAUCUUGGUUUGGGGUAGAGGGGAGGGAGGGGCAGGACAGUGUGGAAUCUCUAAGGCGUAUGGUUAGAUAGGUGGCACGAUUAGUUCUGAUUGGGCCUUUAUGUUAAAAACCUCUGGGGG	0.895
CAUGCACAUGCCGCUGUCACCAAAAGCAAAUACCUUUUUCAGAUUCAUUAAUAGCAUUUUUAGUACUUCCUCCUUCCUUCUAAUAGUUUAUAGCAUUAGGGGAACAGAAGUCCUGGUUCU	2.09
UAAUGUGUUUUUAUUUAUUGAGAAUAGUUUUGUGCUAAAGACUGUGCUAGACUUAAAAAUUAGUGGAUCACUUCCACUUUGUUGUGUUGCUUUUGUUAUUGAAAAUAAAUAUAACUUUGU	0.337
UUCACUUCCAGGUUGGGCCUAGUGGAAAAGUCAUAGGAAUUGACCACAUUAAAGAGCUAGUAGACGACUCAGUAAAUAAUGUCAGAAAGGAUGAUCCAAUGCUUUUGUCUUCAGGGAGAG	0.666
CAGCUGACUCACUUAUUGGGAGAGCUGCACAUAUAGCUGUUCUUGAUUCAGAAAUAUUUUUAGAGAAAUUCUUUCUGGUUGCUGCCCUCAAAUAUUUCCAGUAGUAUAAAACAUUGUUAA	1.07

For quick reference, copied from above (block 3):
Oligonucleotide	fitted relative affinity [z-score]
TCACCACTCATGCCTCTTACTGTGCTA	1.15
GGCCCTGTCCTTTTCTTTACGTGCTAG	1.37
TCAGGACTGGACTTTCGGTTAGTGCTA	2.88
CTCCTGCAGCTGCCCTCCTGGTGCTAG	-0.15
